Measured values collected from several papers.
Protocols differ between the studies behind these lines. ± gives the spread as reported.

COc1ccc2c(c1)CN(C(=O)CCN1CCC(Cc3ccccc3)CC1)CC[S@@+]2[O-] — urinary excretion (healthy male volunteers, urine; intravenous, 0.15 mg/kg; baseline: dose): 7.68 ± 2.68%
NCCONC(=O)[C@@H]1CC[C@@H]2CN1C(=O)N2OS(=O)(=O)O — adverse event incidence (refers to: Moderate severity; healthy Chinese men; intravenous, 2 g, treatment-related): 0%
C=CCn1c(=O)c2cnc(Nc3ccc(N4CCN(C)CC4)cc3)nc2n1-c1cccc(C(C)(C)O)n1 — Tmax (human, plasma; oral, 250 mg once daily, -5-day lead-in, monotherapy lead-in): 1.9 h
COc1cc2c3cc1Oc1c(OC)c(OC)cc4c1[C@@H](Cc1ccc(O)c(c1)Oc1ccc(cc1)C[C@@H]3N(C)CC2)N(C)CC4 — remaining compound (mouse plasma, K3EDTA; 0.5 h, 37 °C): 102%
O=C(O)c1ccccc1S(=O)(=O)NCc1ccccc1C1CCC1 — DLS scattered light intensity (colloidal aggregate formation, dynamic light scattering; 50 mM potassium phosphate buffer; 200 µM, pH 7.0, 1% DMSO; higher = more aggregation): 317000 counts/s
CCc1cc(C(=O)NC)c2nccc(N3CCc4c(cc(Cn5ccnc5)cc4-c4cn(C)nc4C(F)(F)F)C3=O)c2c1 — blood CHCM (Sprague Dawley rats; oral, 100 mg/kg twice daily, 7 days): 314 ± 6.14 g/L
COc1ccc(Br)c(/C=N/NC(=O)COc2ccc(-c3ccccc3)cc2)c1 — HC50 (haemolysis; sheep erythrocytes; 1 h, pH 7.5): > 128 µg/mL
CO/N=C(\C(=O)N[C@@H]1C(=O)N2C(C(=O)O)=C(COC(C)=O)CS[C@H]12)c1csc(N)n1 — deviation from nominal concentration (human whole blood; concentration not given, 24 h, 4 °C): -2.7%
O=S(=O)(NCc1cnc(-n2cccn2)s1)c1cccc(Cl)c1O — DLS scattered light intensity (colloidal aggregate formation, dynamic light scattering; 50 mM potassium phosphate buffer; 200 µM, pH 7.0, 1% DMSO; higher = more aggregation): 634000 counts/s
COc1ccc2c(=O)n(C)c(-c3ccccc3)nc2c1 — tissue/plasma ratio (male Sprague-Dawley rat, testis; oral, 30 mg/kg, 0.25 h; baseline: testis over plasma): 0.8
COc1cc(N)c(Cl)cc1C(=O)NC1CCN(CCCOc2ccc(F)cc2)CC1OC (centres unmarked) — QTc interval (male Hartley guinea pig, anaesthetized; intravenous, 0.1 mg/kg, baseline before infusion): 302 ± 0.3 ms
CC(Cc1c(F)cccc1F)NS(=O)(=O)c1ccoc1C(=O)O (centres unmarked) — DLS scattered light intensity (colloidal aggregate formation, dynamic light scattering; 50 mM potassium phosphate buffer; 200 µM, pH 7.0, 1% DMSO; higher = more aggregation): 5.84e+06 counts/s
CCCC1CCC(c2ccc(OCC)c(F)c2F)CC1 (centres unmarked) — concentration (refers to: compound; human pregnant women, male fetuses, maternal serum; dose not given, paired maternal-cord samples, mean): 0.72 ng/mL
CC(C)C[C@H](NC(=O)CNC(=O)c1cc(Cl)ccc1Cl)B(O)O — treatment-emergent adverse events (refers to: Hyponatraemia; human newly diagnosed multiple myeloma; oral, dose not given, maintenance, grade 3, onset cycle 17 or later): 0%
C[C@@H]1CCO[C@H]2Cn3cc(C(=O)NCc4ccc(F)cc4F)c(=O)c(O)c3C(=O)N12 — AUC(0-24) (population PK, post-hoc; children, 25 to <30 kg, plasma; oral, 22.4 mg granules, steady state, geometric mean): 54400 ng·h/mL
Cc1ccc(C(=O)N(CCCN)C(c2nc3snc(C)c3c(=O)n2Cc2ccccc2)C(C)C)cc1 (centres unmarked) — plasma concentration at 24 h (human patients, plasma; intravenous, 4 mg/day, day 3 of induction course, geometric mean): 4.5 ng/mL
CCn1cc(C(=O)N2CCOCC2)c(=O)c2cc(NC3Cc4ccccc4C3)cnc21 — AUC(0-12) (human, fed; oral suspension, 2000 mg/day twice daily, day 1, arithmetic mean): 8790 ng·h/mL
O=C(Nc1cnccc1Cl)N1CCN(Cc2ccc3c(c2)OC(F)(F)O3)CC1 — alanine aminotransferase increased (multiple ascending dose; young men; 75 mg, treatment-emergent adverse events): 0%
CNC(=O)c1ccc(-c2cnc3ncc(Cc4ccc5ncccc5c4)n3n2)cc1F — adverse event incidence (phase 1 clinical trial, refers to: peripheral edema; all expansion cohorts; oral, 600 mg twice daily, grade 3 or 4): 0%
COc1cccc(OC)c1-c1cc(C(=O)NC2(C(=O)O)C3CC4CC(C3)CC2C4)nn1-c1ccc(C(=O)N(C)CCCN(C)CCCN(C)C(=O)CN2CCN(CC(=O)[O-])CCN(CC(=O)[O-])CCN(CC(=O)[O-])CC2)cc1C(C)C.[177Lu+3] (centres unmarked) — tumour-to-large intestine ratio (mouse HT-29 xenograft; 168 h, biodistribution; baseline: tumour over large intestine): 34.4
CC(C)(C(=O)N1CCOc2c(C#N)cncc2C1)C(F)F — subjects with adverse event (refers to: abdominal discomfort; human; oral, 10 mg once daily, 14 days, multiple ascending dose): 0%
CCN1CCN(Cc2ccc(NC(=O)c3ccc(C)c(NC(=O)c4cncc(-c5cccs5)c4)c3)cc2C(F)(F)F)CC1 — mean plasma concentration (LC-MS/MS; C57BL/6 mouse, plasma; intraperitoneal, 10 mg/kg single dose, 1 h): 327 ng/mL
CNCCOC12CC3(C)CC(C)(CC(Cn4ncc(-c5ccc(N6CCc7cccc(C(=O)Nc8nc9ccccc9s8)c7C6)nc5C(=O)O)c4C)(C3)C1)C2 — PR interval change (beagle dog, male, anaesthetised; intravenous bolus, 0.03 mg/kg, 15 min; baseline: baseline): -9 ms
CNC(=O)c1ccc(-c2cnc3ncc(Cc4ccc5ncccc5c4)n3n2)cc1F — unbound AUC(0-inf) (human severe hepatic impairment; oral, 200 mg single dose, adjusted geometric mean): 324 ng·h/mL
O=C(O)CCCOc1ccc([18F])cc1-c1cc(-c2ccccc2C(F)(F)F)n(-c2ccccc2)n1 — radioactivity uptake (gamma counting; male ddY mice, brain; intravenous, 2.1 MBq, 15 min): 0.21 ± 0.02 SUV
CCCOc1ccc([C@H]2CNC(=O)N2c2ccc3[nH]cnc3c2)cc1 — AUC(0-tlast) (human volunteers fasted, plasma; oral tablet, 200 mg single dose, crossover, geometric mean): 2320 ng·h/mL
Cc1cc(-c2nccc3c2ccn3CC(=O)Nc2ccc(-c3cnccn3)cn2)ccn1 — vessel puncture site haematoma (human; 5 mg once daily, multiple ascending dose): 0%
CCOc1c([C@H](C)n2nc(C)c3c(N)ncnc32)cc(Cl)c(F)c1[C@@H]1CNC(=O)C1 — ECG observations (refers to: QTcF change above 60 ms; previously treated B-cell malignancy; oral, 30 mg once daily, baseline QTcF ≤450 ms; baseline: baseline): 0%
C[C@H](O)c1cc(C(=O)N[C@@H](C)Cn2ccc(-c3ccc(C#N)c(Cl)c3)n2)n[nH]1 — AUC(0-tlast) (human, fasted, plasma; oral tablet, 300 mg, geometric mean): 10000 ng·h/mL
O=C(O)CCCCCCCCCCC(=O)O — daily mean concentration (human, plasma; endogenous baseline diurnal): 44.1 ± 4.7 nM
CNC(=O)c1ccc(-c2cnc3ncc(Cc4ccc5ncccc5c4)n3n2)cc1F — Agitation dose reduction/interruption (Japanese patients; oral, 400 mg, grade 3/4): 0%
CCN1/C(=C/C(C)=O)Sc2ccc(F)cc21 — systolic blood pressure change (cynomolgus monkey; oral, 100 mg/kg, 0.5 h post-dose; baseline: pre-dose): 100 ± 6%
O=C(O)CCC(=O)O.[2H]C([2H])([2H])Oc1cc(C)c2[nH]ccc2c1CN1CC[C@@H](C2CC2)C[C@H]1c1ccc(C(=O)O)cc1 — subjects with any TEAE (multiple ascending dose; healthy Chinese subjects; 125 mg twice daily): 75%
CO[C@@H]1[C@H](O)[C@@H](CO)O[C@H]1n1c([N+](=O)[O-])nc2c(=O)[nH]c(N)nc21 — nucleoside remaining fraction (depurination, RP-HPLC; citrate-phosphate buffer 0.5 mM; 2700 min, pH 5, 37 °C): 0.382
CSCC(NS(=O)(=O)c1cnccc1C(=O)O)c1ccccc1Cl (centres unmarked) — DLS scattered light intensity (colloidal aggregate formation, dynamic light scattering; 50 mM potassium phosphate buffer; 200 µM, pH 7.0, 1% DMSO; higher = more aggregation): 325000 counts/s
OC[C@H]1O[C@@H](c2ccc(Cl)c(Cc3ccc(O[C@H]4CCOC4)cc3)c2)[C@H](O)[C@@H](O)[C@@H]1O — change in Calcium (Japanese type 1 diabetes patients, blood; 10 mg, day 28; baseline: baseline): -0.2 mg/dL
Cc1ccc([C@@H]2O[C@H](CO)[C@@H](O)[C@H](O)[C@H]2O)cc1Cc1ccc(-c2ccc(F)cc2)s1 — urinary magnesium excretion change (Japanese type 2 diabetes patients; 100 mg, day 17, 24 h urine collection; baseline: baseline): 26.6 mg
O=C(Nc1nnc(Cl)s1)c1ccco1 — HC50 (haemolysis; sheep erythrocytes; 1 h, pH 7.5): > 128 µg/mL
CCCCCCCCCCCCCCCC(=O)N[C@@H](CCC(=O)NCCCC[C@H](NC(=O)[C@H](C)NC(=O)[C@H](C)NC(=O)[C@H](CCC(N)=O)NC(=O)CNC(=O)[C@H](CCC(=O)O)NC(=O)[C@H](CC(C)C)NC(=O)[C@H](Cc1ccc(O)cc1)NC(=O)[C@H](CO)NC(=O)[C@H](CO)NC(=O)[C@@H](NC(=O)[C@H](CC(=O)O)NC(=O)[C@H](CO)NC(=O)[C@@H](NC(=O)[C@H](Cc1ccccc1)NC(=O)[C@@H](NC(=O)CNC(=O)[C@H](CCC(=O)O)NC(=O)[C@H](C)NC(=O)[C@@H](N)Cc1cnc[nH]1)[C@@H](C)O)[C@@H](C)O)C(C)C)C(=O)N[C@@H](CCC(=O)O)C(=O)N[C@@H](Cc1ccccc1)C(=O)N[C@H](C(=O)N[C@@H](C)C(=O)N[C@@H](Cc1c[nH]c2ccccc12)C(=O)N[C@@H](CC(C)C)C(=O)N[C@H](C(=O)N[C@@H](CCCNC(=N)N)C(=O)NCC(=O)N[C@@H](CCCNC(=N)N)C(=O)NCC(=O)O)C(C)C)[C@@H](C)CC)C(=O)O — baseline plasma concentration (HPLC-MS/MS; Sprague-Dawley rat, plasma; subcutaneous, 0.06 mg/kg, day 1, before first injection): 0 ng/mL
COc1c(N2C[C@@H]3CCCN[C@@H]3C2)c(F)cc2c(=O)c(C(=O)O)cn(C3CC3)c12 — QTc interval (male Hartley guinea pig, anaesthetized; intravenous, 1 mg/kg, baseline before infusion): 302 ± 0.6 ms
CCO[C@H]1CCN(Cc2c(OC)cc(C)c3[nH]ccc23)[C@H](c2ccc(C(=O)O)cc2)C1 — incidence of abdominal distension (PNH patients, active haemolysis; oral, 200 mg, 8 weeks, treatment): 0%
O=C(O)c1occc1S(=O)(=O)NCc1ccc(-c2ccccc2)s1 — DLS scattered light intensity (colloidal aggregate formation, dynamic light scattering; 50 mM potassium phosphate buffer; 200 µM, pH 7.0, 1% DMSO; higher = more aggregation): 1.14e+06 counts/s
Cl.[2H]C([2H])([2H])CC(=O)c1cnc(NC(=O)C2CC2)cc1Nc1cccc(-c2ncn(C([2H])([2H])[2H])n2)c1OC — CL/F (geometric mean; human; 40 mg twice daily, day 7, fed, liquid, multiple dose): 10.8 L/h
COc1cc(N2CCC(N3CCN(C)CC3)CC2)ccc1Nc1ncc(Cl)c(Nc2ccccc2P(C)(C)=O)n1 — CYP3A4 contribution to clearance (mass balance and in vitro; human; oral, 180 mg, remaining routes unassigned): 42.8%

For quick reference, copied from above:
COc1cccc(OC)c1-c1cc(C(=O)NC2(C(=O)O)C3CC4CC(C3)CC2C4)nn1-c1ccc(C(=O)N(C)CCCN(C)CCCN(C)C(=O)CN2CCN(CC(=O)[O-])CCN(CC(=O)[O-])CCN(CC(=O)[O-])CC2)cc1C(C)C.[177Lu+3] (centres unmarked) — tumour-to-large intestine ratio (mouse HT-29 xenograft; 168 h, biodistribution; baseline: tumour over large intestine): 34.4
CC(C)(C(=O)N1CCOc2c(C#N)cncc2C1)C(F)F — subjects with adverse event (refers to: abdominal discomfort; human; oral, 10 mg once daily, 14 days, multiple ascending dose): 0%
CCN1CCN(Cc2ccc(NC(=O)c3ccc(C)c(NC(=O)c4cncc(-c5cccs5)c4)c3)cc2C(F)(F)F)CC1 — mean plasma concentration (LC-MS/MS; C57BL/6 mouse, plasma; intraperitoneal, 10 mg/kg single dose, 1 h): 327 ng/mL
CNCCOC12CC3(C)CC(C)(CC(Cn4ncc(-c5ccc(N6CCc7cccc(C(=O)Nc8nc9ccccc9s8)c7C6)nc5C(=O)O)c4C)(C3)C1)C2 — PR interval change (beagle dog, male, anaesthetised; intravenous bolus, 0.03 mg/kg, 15 min; baseline: baseline): -9 ms
CNC(=O)c1ccc(-c2cnc3ncc(Cc4ccc5ncccc5c4)n3n2)cc1F — unbound AUC(0-inf) (human severe hepatic impairment; oral, 200 mg single dose, adjusted geometric mean): 324 ng·h/mL
